# Results pooled from the literature.
# Each line is one published result; not all experiments were run side by side. ± gives the spread as reported.
Compound,organism,test,system,conditions,scale,endpoint,result
O=C(O)C1(O)Oc2cc(F)ccc2N(Cc2ccccc2)C1=O (centres unmarked),Arabidopsis thaliana,,2-week-old plants,"foliar spray, 200 µg/mL, 20 days",,fresh weight inhibition,76%
Oc1c(Br)cc(Br)c2nc3c(C(F)(F)F)cc(C(F)(F)F)cc3nc12,Staphylococcus aureus,Calgary Biofilm Device,"MRSA 1, clinical isolate",,,MBC,0.59 µM
CN[C@@H]1[C@H](O)[C@H](NC)[C@H]2O[C@]3(O)[C@H](O[C@@H]2[C@H]1O)O[C@H](C)C[C@@]3(O)CNCCc1ccc(F)cc1,Mycobacteroides abscessus,RNA sequencing,ATCC 19977,"1 µg/mL, 3 h, unit not given",reference: untreated,differentially expressed genes,1880
O=C(Nc1ccccc1Nc1ccccc1)c1cccnc1F,Valsa mali,"mycelial growth, mycelial growth rate method",,50 mg/L,,inhibition,6.82%
CCOC(=O)C1=C(C)NC2=C(C(=O)CC(C)(C)C2)C1c1ccc(OCC(=O)NN=Cc2cccc([N+](=O)[O-])c2)cc1OCC(=O)NN=Cc1cccc([N+](=O)[O-])c1 (centres unmarked),Brevibacillus brevis,,,"concentration not given, 24 h, 37 °C",,inhibition zone diameter,6.1 ± 0.1 mm
CC1(CCCCCCCCCCOCCCOP(=O)(O)CO[C@H](CO)Cn2ccc(N)nc2=O)COC1,human gammaherpesvirus 8,qPCR,BCBL-1,7 days,,EC50,530 ± 420 nM
C/C=C(/C)C(=O)O[C@@H]1C=C(C)CC[C@]2(O)[C@@H](C(C)C)CC(=O)[C@]12C,Helicobacter pylori,broth microdilution,,concentration not given,,antibacterial activity,inactive
C=CCSc1nnc([C@H](Cc2ccccc2)NC(=O)Cc2c(C)[nH]c3ccccc23)n1-c1ccc(OC)cc1,HIV-2,,"MT-4, wild type",,reference: CC50 over EC50,selectivity index,6
CCOC(=O)C1=C(C)NC2=C(C(=O)CC(C)(C)C2)C1c1ccc(OCC(=O)NN=Cc2cc(Br)c(O)c(Br)c2)cc1OCC(=O)NN=Cc1cc(Br)c(O)c(Br)c1 (centres unmarked),Priestia megaterium,,DSM 32,"concentration not given, 24 h, 37 °C",,inhibition zone diameter,10.6 ± 0.1 mm
C=C1CC(OC(=O)C(C)(O)CCl)C2C(=C)C(=O)OC2C2C1CC(O)C2(O)CCl (centres unmarked),Proteus vulgaris,,,concentration not given,,inhibition zone,8 ± 1.1 mm
CC1(CCCCCCCCCCCCOCCCOP(=O)(O)CO[C@H](CO)Cn2ccc(N)nc2=O)COC1,Murid betaherpesvirus 1,qPCR,"MEF, Smith",,reference: CC50 over EC50,selectivity index,> 18
CCCSC[C@H]1CN(Cc2c[nH]c3c(N)ncnc23)C[C@@H]1O,Helicobacter pylori,growth,horse blood agar,,,IC90,~10 ng/mL
COc1ccc(-c2nc(-c3ccccc3OC)[nH]c2-c2ccc(OC)cc2)cc1,Schistosoma mansoni,egg laying,worm couples,,,lowest concentration reducing egg number,5 µM
CCCCCCCCCCCCCCCCCCCCCCCCCCCCCCOC(=O)/C=C/c1ccc(O)cc1,Pichia kudriavzevii,,ATCC 6258,,reference: compound over fluconazole,MIC ratio,2.5
CC(C)=CCC1CC(=O)C(C)=CC2C=C(C)CC(c3ccccc3)C2C(=O)C2=C(O)C(C)(CC=C1C)C(=O)C(C)(C)C2=O (centres unmarked),human respiratory syncytial virus,immunofluorescence,"HEp-2, A2","concentration not given, 48 h post-infection",,RSV fusion protein expression,decreased
CCCCSC[C@H]1CN(Cc2c[nH]c3c(N)ncnc23)C[C@@H]1O,Helicobacter pylori,growth,horse blood agar,,,IC90,~10 ng/mL
COc1ccccc1C(=O)O[C@H]1[C@H](C)[C@H](O)[C@H](C)[C@@H](O)[C@@H](C)/C=C/C=C(/C)C(=O)NC2=C3NC4(CCN(CC(C)C)CC4)N=C3c3c(c(O)c(C)c4c3C(=O)[C@@](C)(O/C=C/[C@H](OC)[C@H]1C)O4)C2=O,Mycobacteroides abscessus,,ATCC 19977,,reference: wild type over arr deletion,MIC ratio,1
CCCOC(=O)N1c2cc(CNC)ccc2[C@H](NC(=O)C(=O)Nc2ccc(Cl)c(F)c2)[C@H]1CNC(=N)N,HIV-1 JR-FL pseudovirus,viral infection,Cf2Th-CD4/CCR5 cells,,reference: BNM-III-170,potency fold increase,24 fold
COc1ccc(-n2c(SCc3cccnc3)nnc2[C@H](Cc2ccccc2)NC(=O)Cc2c(C)[nH]c3ccccc23)cc1,HIV-2,"HIV-2-induced cytopathicity, MTT","MT-4, wild type",,,EC50,4160 ± 1270 nM
CO[C@H]1/C=C/O[C@@]2(C)Oc3c(C)c(O)c4c(c3C2=O)C2=NC3(CCN(CC(C)C)CC3)NC2=C(NC(=O)/C(C)=C\C=C\[C@H](C)[C@H](O)[C@@H](C)[C@@H](O)[C@@H](C)[C@H](OC(=O)c2cccc(C)c2)[C@@H]1C)C4=O,Mycobacteroides abscessus,,ATCC 19977,,reference: wild type over arr deletion,MIC ratio,1.2
CCn1c(NN)nc2cc3ccccc3cc2c1=O,coxsackievirus B4,plaque,BGM,"concentration not given, non-toxic dose",,virus titre reduction,10 ± 1%
COc1ccc(-n2c(SCCF)nnc2[C@H](Cc2ccccc2)NC(=O)Cc2c(C)[nH]c3ccccc23)cc1,HIV-2,,"MT-4, wild type",,reference: CC50 over EC50,selectivity index,6
CCCCCCCCCC(=O)N[C@@H](Cc1c[nH]c2ccccc12)C(=O)N[C@H](CC(N)=O)C(=O)N[C@@H](CC(=O)O)C(=O)N[C@@H]1C(=O)NCC(=O)N[C@@H](CCCNC(=O)OC2/C=C/CCCCC2)C(=O)N[C@@H](CC(=O)O)C(=O)N[C@H](C)C(=O)N[C@@H](CC(=O)O)C(=O)NCC(=O)N[C@H](CO)C(=O)N[C@@H]([C@H](C)CC(=O)O)C(=O)N[C@@H](CC(=O)c2ccccc2N)C(=O)O[C@@H]1C (some centres unmarked),Staphylococcus aureus,isothermal microcalorimetry,MRSA,"0.5 µg/mL, UG gel",,time to detection,4 h
CC(C)(C)NCC(SS(=O)(=O)O)c1ccccc1 (centres unmarked),Schistosoma mansoni,phenotypic changes,somules and adults,"up to 10 µM, 3 days",,activity,inactive
CCn1c(SCc2cccc(OC)c2)nc2cc3ccccc3cc2c1=O,coxsackievirus B4,plaque,BGM,"concentration not given, non-toxic dose",,virus titre reduction,0%
Nc1ccn(C[C@@H](CO)OCP(=O)(O)OCCCS(=O)(=O)CCCCCCCCCCC2CCC2)c(=O)n1,human gammaherpesvirus 8,qPCR,BCBL-1,7 days,,EC50,20 ± 10 nM
CCCCOC(=O)/C=C/c1ccc(O)c(O)c1,Trypanosoma brucei rhodesiense,,STIB900 bloodstream forms,,reference: L6 cell cytotoxicity over T. b. rhodesiense activity,selectivity index,36
Brc1ccc(-c2c[nH]c(-c3ccccn3)n2)cc1,Schistosoma mansoni,,adult male worms,5 µM,,worm killing,0%
CN[C@H](CC(C)C)C(=O)N[C@H]1C(=O)N[C@@H](CC(N)=O)C(=O)N[C@H]2C(=O)N[C@H]3C(=O)N[C@H](C(=O)N[C@H](C(=O)O)c4cc(O)cc(O)c4-c4cc3ccc4O)[C@H](O)c3ccc(c(Cl)c3)Oc3cc2cc(c3O[C@@H]2O[C@H](CO)[C@@H](O)[C@H](O)[C@H]2O[C@H]2C[C@](C)(NCc3ccc(C(=O)OCCCCCCN(Cc4ccccn4)Cc4ccccn4)cc3)[C@H](O)[C@H](C)O2)Oc2ccc(cc2Cl)[C@H]1O,Bacillus subtilis,"protein synthesis, item: YtrE.1",168,"concentration not given, 10 min, at peak effective concentration",reference: untreated,regulation factor,140 ± 40.5
Fc1ccc2c(c1)c1nc3ccc(Br)cc3c-1cn2Cc1cn(-c2ccccc2I)nn1,Giardia duodenalis trophozoites,"UHPLC-Q-TOF-MS, item: PS(19:0/0:0)",,"IC50, 0.1242 h",reference: 0.25% DMSO,fold change,3.31
CC(=O)OC[C@H]1O[C@@H](Sc2sc(C(=O)c3ccc(Br)cc3)c(N)c2-c2nc3ccccc3s2)[C@H](OC(C)=O)[C@@H](OC(C)=O)[C@@H]1OC(C)=O,coxsackievirus B4,plaque reduction,,"non-toxic dose NG, mean over three titres",,viral reduction,63.3%
CC[C@@H](C)[C@@H](NC(=O)[C@@H](C)N)C(=O)N[C@H](CCCCN)C(=O)N[C@@H](C(=O)N[C@H](CCCNC(=N)N)C(=O)N[C@H](CCCCN)C(=O)N[C@H](CC(C)C)C(=O)N[C@H](Cc1ccccc1)C(=O)N[C@H](CCCCN)C(=O)N[C@H](CCCCN)C(=O)N[C@H](CC(C)C)C(=O)N[C@H](CC(C)C)C(=O)N[C@H](CCCNC(=N)N)C(N)=O)[C@H](C)CC,Escherichia coli,checkerboard,ATCC 25922,"unit not given, added: gentamicin",lower = stronger synergy,FICI,0.313

# Excerpt of the above:
Compound,organism,test,system,conditions,scale,endpoint,result
Brc1ccc(-c2c[nH]c(-c3ccccn3)n2)cc1,Schistosoma mansoni,,adult male worms,5 µM,,worm killing,0%
CN[C@H](CC(C)C)C(=O)N[C@H]1C(=O)N[C@@H](CC(N)=O)C(=O)N[C@H]2C(=O)N[C@H]3C(=O)N[C@H](C(=O)N[C@H](C(=O)O)c4cc(O)cc(O)c4-c4cc3ccc4O)[C@H](O)c3ccc(c(Cl)c3)Oc3cc2cc(c3O[C@@H]2O[C@H](CO)[C@@H](O)[C@H](O)[C@H]2O[C@H]2C[C@](C)(NCc3ccc(C(=O)OCCCCCCN(Cc4ccccn4)Cc4ccccn4)cc3)[C@H](O)[C@H](C)O2)Oc2ccc(cc2Cl)[C@H]1O,Bacillus subtilis,"protein synthesis, item: YtrE.1",168,"concentration not given, 10 min, at peak effective concentration",reference: untreated,regulation factor,140 ± 40.5
Fc1ccc2c(c1)c1nc3ccc(Br)cc3c-1cn2Cc1cn(-c2ccccc2I)nn1,Giardia duodenalis trophozoites,"UHPLC-Q-TOF-MS, item: PS(19:0/0:0)",,"IC50, 0.1242 h",reference: 0.25% DMSO,fold change,3.31
